Published values of several laboratories.
A part holds a random share of what one study measured. Positions count from the first letter of the parent shown.

Series 1
Target: NFE2L3, bZIP domain (human)
Method: DHFR protein complementation
Matrix: yeast
Notes: single substitutions, most at no-binding floor
Baseline: wild-type JUN-FOS pair
Reading: higher = stronger binding
Starting sequence: JUN, bZIP domain (human); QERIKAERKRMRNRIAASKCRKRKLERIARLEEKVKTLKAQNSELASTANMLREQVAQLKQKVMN; partner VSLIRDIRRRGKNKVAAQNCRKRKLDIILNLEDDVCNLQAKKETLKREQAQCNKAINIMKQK
| Variant | binding fitness [natural log] |
| --- | --- |
| N42D | -1.49 |
| E33D | -1.15 |
| N42C | -1.11 |
| T37I | -1.46 |
| M51P | -1.56 |
| A57M | -1.46 |
| S43A | -1.23 |
| E54L | -1.45 |
| Q55P | -1.59 |
| K34A | -1.58 |
| A57T | -1.37 |
| S43P | -1.42 |
| R53T | -1.35 |
| A29L | -1.43 |
| R53W | -1.52 |
| S43K | -1.55 |
| S43M | -1.23 |
| R30S | -1.45 |
| K34R | -1.28 |
| L38Q | -1.63 |
| N42I | -1.28 |
| A49C | -1.51 |
| R30Q | -1.19 |

Series 2
Target: Histone acetyltransferase KAT6A, winged helix 2, GST fusion (KAT6A, Homo sapiens, UniProt Q92794, residues 85-181)
Method: protein binding microarray
Molecule type: double-stranded DNA, one strand shown
Matrix: in vitro
Tested at: not given
Notes: 8-mer, flanks averaged, mean of 2 arrays, mostly near background
Baseline: not given
Reading: higher = stronger binding
Residues (chain): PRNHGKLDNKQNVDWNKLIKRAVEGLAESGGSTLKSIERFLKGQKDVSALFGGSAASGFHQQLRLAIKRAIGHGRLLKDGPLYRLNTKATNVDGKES
| Sequence | E-score |
| --- | --- |
| ACCGCCCC | 0.198 |
| AAGTAAGT | -0.143 |
| AGCTGTTG | 0.0519 |
| CGCTTGGA | 0.0787 |
| GGATGCCC | -0.0101 |
| CGCTTACA | 0.0214 |
| TTAACTAA | -0.0102 |
| CCGTCTGC | 0.126 |
| CCCAGGAC | -0.113 |
| CCGTATAC | -0.128 |
| ACTCTCGC | -0.0673 |
| AAAGTGCG | 0.0422 |
| CGTCTCGC | 0.0228 |
| TGTCGTAA | -0.107 |
| ACCCGTAG | -0.123 |
| TGGCGGAA | -0.00664 |
| AGTACCCA | -0.18 |

Series 3
Target: Hepatocyte nuclear factor 3-beta, forkhead domain (FOXA2, Homo sapiens, UniProt Q9Y261, residues 142-269)
Method: protein-binding microarray
Molecule type: double-stranded DNA, one strand shown
Matrix: in vitro
Tested at: not given
Notes: k-mer, scored over probes, only values ≥0.25
Reading: higher = stronger binding
Construct (chain): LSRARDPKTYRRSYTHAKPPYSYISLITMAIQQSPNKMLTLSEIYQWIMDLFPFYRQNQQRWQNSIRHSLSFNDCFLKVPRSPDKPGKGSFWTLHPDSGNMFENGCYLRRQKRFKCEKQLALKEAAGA
| Sequence | E-score |
| --- | --- |
| TGATATCA | 0.298 |
| TATTGACA | 0.424 |
| TAATCCAA | 0.3 |
| ATATATAT | 0.302 |
| TATCAATA | 0.255 |
| ATTATGTG | 0.346 |
| CTATGCAA | 0.261 |
| CCAATACA | 0.292 |
| CACAAATA | 0.38 |
| ATATCAGA | 0.319 |
| AATGACAA | 0.3 |
| CAATGCAA | 0.26 |
| AATACATA | 0.402 |
| AAATATAT | 0.377 |
| GTTAACTA | 0.255 |
| AAGTAACA | 0.28 |
| GCGTAATA | 0.27 |
| CACATATG | 0.308 |
| AGATATAT | 0.304 |
| AATACTAT | 0.252 |
| ATTAGATA | 0.306 |
| GTAACACA | 0.282 |
| AAATATGA | 0.377 |
| AGAATAAA | 0.281 |
| ATCATATG | 0.324 |

Series 4
Target: RNA binding protein fox-1 homolog 2, RRM domain, GST-SBP tag (RBFOX2, Homo sapiens, UniProt O43251-10, residues 100-194)
Method: RNA Bind-n-Seq
Molecule type: RNA
Matrix: in vitro
Tested at: 365 nM
Notes: natural RNA segment, single round, ends assumed
Baseline: no-protein control
Reading: higher = stronger binding
Target sequence (chain): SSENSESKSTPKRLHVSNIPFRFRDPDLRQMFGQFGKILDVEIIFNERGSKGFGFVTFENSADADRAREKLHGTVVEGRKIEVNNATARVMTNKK
| Sequence | RBNS enrichment (R) |
| --- | --- |
| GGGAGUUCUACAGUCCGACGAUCUGUUACACUGGAGCCUGCUGCAGGCCAGCUCUCUGCUCUUCACUGCUUCCCUUGACUGGGGAGACUGGAAGUCCUUACACUGGAGUUGCUGGGCCAACUGGUCACCCUCAUGGAAUUCUCGGGUGCCAA | 0.355 |
| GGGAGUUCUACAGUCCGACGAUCCCAUCUACCCUGUCACACUUCACCAGAAGGGAGAAGGUUGUUGCCAGUCACCAGGGAGCUCACUUUCCACUUGGAGACGCUUUGCUCUGCUUGUGCACCGCCAGCUUCUGUGGAAUUCUCGGGUGCCAA | 0.525 |
| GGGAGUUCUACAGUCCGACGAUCCGGACUUCAGGGGACACGUUUAGUAUAUUAAGACAUGCUGAUGGAAACAGUAUCUUCAAAAAAAUCAGCAGCAAUUGAAAUGCUACAAAAGACUUUGUUUAAAGAUUUUAUGGAAUUCUCGGGUGCCAA | 1.19 |
| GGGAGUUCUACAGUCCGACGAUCUGUUUCUAUUAAAACAGACUAUUAUAAAGCUUUAAGUUGUCAACUUUGUUCUAAAUAUCAACUAGCGCAAGUGAAUACUGAAGAUUUCUUAGUCAGUUUUUAGGGGAUUUUGGAAUUCUCGGGUGCCAA | 0.395 |
| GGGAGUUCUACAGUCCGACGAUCAGAUCAAGAUAUUAAGAGGUAUCCUUGAUUUAUUUUCCAGUAUUCAGUAGUAAAAUUUUCCUGUCCACUGUGAAUCAAAGCCUGAGUCACUCUAUUUAACCUUGGACACAUGGAAUUCUCGGGUGCCAA | 0.329 |
| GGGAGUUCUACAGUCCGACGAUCAUGUCCCCCAUAUGCAUGUAAUGAAACAUUUGUGAAAAUCACUUUAAUAAUAAACAGGAAAUGAACCAAAUAUUGCUCUUUUCUCUUAUUCAGCAGAAGUCAUGAGUUGGUGGAAUUCUCGGGUGCCAA | 7.76 |
| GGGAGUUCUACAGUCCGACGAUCUCAAUCAUGGCCUUCACUGAGUGCUUUUGAGAUCCCAGUGCUAAUGUUUUAACUGCCUUUCUGUUGAACUGUGGGGCUCUGAUUUGUGUCUAGAUUAUUGUAUAUUCUCAUGGAAUUCUCGGGUGCCAA | 0.797 |
| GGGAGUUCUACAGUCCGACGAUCAAUAAAUAUGAAGUAAGAUUACAACAGAGCAGAACUUGCACCCACCAUUUUUUUUACCUGAUUUUUGUUUUCAAAUAAGAAUGUAAGCAUUUUACUUAAAUUUUACUGUUUGGAAUUCUCGGGUGCCAA | 0.948 |
| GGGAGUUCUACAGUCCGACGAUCAAGCCUCUAAUCUCAACGCUUUGGGAGGCUGAGGCAGGAGGAUCGCUUGAGGCCAGGAGUUUGAGACCACCUUGGGCAACAUAACGAGACCCCGUCUCUACAAAAAAAAUUGGAAUUCUCGGGUGCCAA | 0.224 |
| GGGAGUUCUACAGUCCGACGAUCGGACAGAAUCCCCGACUGCACUAUUGAGGGAGUUUCAGAAGAGAAGGAAGAGGUGCUGGAAGGAUGCUUUUGCAGUCAUGCAGCAAGGAAACGACCAGGGCUGUGAAGAUUGGAAUUCUCGGGUGCCAA | 0.712 |
| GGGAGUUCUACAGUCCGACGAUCCACGAGAGACCAUGUAUAUAAAAUAGUCAUGACGACACUGACCUCUUGCACUUGUACAUAACUAUACUGUAGUGUCCAGAAUGUUCAGACAUUCAGGGUGUACAUAAACAUGGAAUUCUCGGGUGCCAA | 0.352 |
| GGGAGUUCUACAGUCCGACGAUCCCACUGCAUUCUUUGGCUAAGGCCUGAAUGCUUGCUCAUCUGUAAGAUCUAUACUCGAGGUUUUGUUUUCCUUUUAAAAUUCUUUAGGGAGAGAGGGAUGGUUUCUGAGGUGGAAUUCUCGGGUGCCAA | 0.494 |

Series 5
Target: RING finger protein unkempt homolog, zinc fingers 1-6, SBP tag (UNK, Homo sapiens, UniProt Q9C0B0, residues 30-357)
Sequence of UniProt Q9C0B0 (30-357, looked up): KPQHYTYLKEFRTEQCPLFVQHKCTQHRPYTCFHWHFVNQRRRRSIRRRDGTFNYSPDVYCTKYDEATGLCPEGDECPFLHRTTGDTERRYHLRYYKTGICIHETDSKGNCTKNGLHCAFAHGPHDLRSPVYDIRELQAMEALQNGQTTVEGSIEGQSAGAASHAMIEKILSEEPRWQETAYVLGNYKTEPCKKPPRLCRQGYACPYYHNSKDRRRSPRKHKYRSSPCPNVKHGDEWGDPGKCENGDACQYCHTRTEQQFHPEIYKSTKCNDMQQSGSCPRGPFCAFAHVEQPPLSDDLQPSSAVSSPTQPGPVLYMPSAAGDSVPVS
Method: RNA Bind-n-Seq
Molecule type: RNA
Matrix: in vitro
Tested at: 100 nM
Notes: RNA with constant flanks, vertebrate orthologous sites, ends assumed
Baseline: input RNA pool
Reading: higher = stronger binding
| Sequence | bound/input enrichment |
| --- | --- |
| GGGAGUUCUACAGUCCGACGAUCUUUUAAAGUCAUUUUUCACAUUUCCUGUAAAUAGUGGAUAAUCAUUUUUAUUUUAUUUUUAAGUGCUGUUUUAACAUGUGGAUAGAUCAUAAAUGUACUUGCUGAAUUCAUUCUUUUUUUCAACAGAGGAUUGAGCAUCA | 0.579 ratio |
| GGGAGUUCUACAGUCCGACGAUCAUCAUCUAGUUAGGGGUAACCAUUAAUUUAUUUUAAUAAAGGAGAUGCUGAAAGUCCUAUUAGUACUGACUUUAGUUGGAGAACUGAGAUAAGGAUCUUUGAGGUAAUUCUAAAAUUCAGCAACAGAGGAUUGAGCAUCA | 0.747 ratio |
| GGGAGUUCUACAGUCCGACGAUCCCUCCCCGUUAUCCCUGAAGUAGAACUUUUUAAAAUGUGUUGCCACCACUUCUAAAAAUUUAGCAAUAUCACAAUCAGACAAUAACGAAGUAAGAAAUGUUACUCAUUGUUUUGCAACCACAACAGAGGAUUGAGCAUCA | 1.52 ratio |
| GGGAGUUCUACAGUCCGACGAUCGGGACGCUUUGAUGUAAAAAUUGAAGUUAAGAGCUGAUCACAAGCACAGAUCCUCCCCUCUAGCCAUUUAAUAAGUUAAAAAAUUACAAAAACAAAAACCUACUAGUCUUGAACAAACUGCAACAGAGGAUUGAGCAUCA | 7.45 ratio |
| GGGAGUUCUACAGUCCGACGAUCUAAUUUCAGGAUGAAGCUCUUACAUGAGGUGGCACGAGUCUGGAAAACAGAUGGGUUAACUAGUUGUUCUUAUAAAUUACUGUCUGUGGAACACAAUCCUUUAUAUAUCAACAUCACAGUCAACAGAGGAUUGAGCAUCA | 1.06 ratio |
| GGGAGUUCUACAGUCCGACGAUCUCCCUAACUUGUUCUAGCUUGUGAUCCUGCAAAGUUGGGUGAAGCACUGGUGCCAGAUACCAGAAAUUUUCAUUUCUCUAUUGCCGCUGAUCAGAGAGACAGACAUGAAAAAACAGGAAUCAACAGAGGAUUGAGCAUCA | 0.342 ratio |
| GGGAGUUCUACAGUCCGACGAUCACCAAGUAAUUUUUUUCAACAUUAAUUGAAAAGUGUUGUGUGAAACAUGUCUAGUCAAGAAGUAACAGAAAUAUAUGUGAGCAUUUAAAGUAAAUUUGAGAUGAAGAGUGAAGUAUAUUUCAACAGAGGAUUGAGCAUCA | 0.524 ratio |
| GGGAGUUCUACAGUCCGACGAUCCCUCCCCACCACCCCUAAAAUAGAACUUUGAAAACUGUUUUGCCACCACUUCAAAAGAUUUAGCAAUAUUAGAAUAAAACACGAAUGAAGUAAGAAAUUUUGCUCAUUGUUUUGCAAGCCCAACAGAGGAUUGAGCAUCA | 3.23 ratio |
| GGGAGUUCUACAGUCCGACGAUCAUUUUUUUAAGUUUUUUUAAUUUAAUUUUUCCUUUUGGGGGUAAAGUUUGCUCUACCAAAUAGUGAUUGUAACAAAUUGAUCUGUUUUGGAUGUUGCUAUAGUGACAUGCAGUUAUAUAUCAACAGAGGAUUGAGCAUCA | 0.538 ratio |
| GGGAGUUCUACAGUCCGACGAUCAAGAUGGUGGUUGUACAUUAUUUCAUUUAGAAAAUAUAAAAAUUCAUUUUGUUUUGAAGCUAGGUGGUAAAACUGGAAUAGCUACUAUACCCUAGAGAAUGGGGCAGUUGUGCCCUUCCCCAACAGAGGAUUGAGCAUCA | 2.11 ratio |
| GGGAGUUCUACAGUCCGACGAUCUGUGCUUAUACUCUUCUAUGGAAGAGAUGAAUUGGGAAAUACUGUUUCCUUUUUAUAGAUUAGUUUGUUUCUAAAUUAUGACCAAAAAUAUUUUGCUAUUUCUUUCUUUAUAUAUGGACACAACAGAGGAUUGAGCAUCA | 0.645 ratio |
